Measurements of several laboratories.
Every numbered part comes from another study and shows a few of its results, in no order.

Set 1
Target: RNA binding protein fox-1 homolog 2, RRM domain, GST-SBP tag (RBFOX2, Homo sapiens, UniProt O43251-10, residues 100-194)
Method: RNA Bind-n-Seq
Molecule type: RNA
Sample: in vitro
Concentration: 365 nM
Setting: natural RNA segment, single round, ends assumed
Relative to: no-protein control
Reading: higher = stronger binding
Shared flanks, not repeated: GGGAGUUCUACAGUCCGACGAUC … UGGAAUUCUCGGGUGCCAA
Target sequence (chain): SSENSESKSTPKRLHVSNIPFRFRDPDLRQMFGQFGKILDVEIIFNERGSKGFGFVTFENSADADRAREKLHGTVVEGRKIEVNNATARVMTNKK
Sequence	RBNS enrichment (R)
UGACACUUCCCAAGAAGGCCAAACCUCUAACCGACAUUCCUGAAAUACGUGGCAUUAUUCUUUUUUGGAUUUCUCAUUUAUGGAAGGCUAACCCUCUGUUGACUGUAAGC	0.293
UUCCCGUUGCUUUGUUUUUCUGUCUGAAGGAAUCUUUUUCUUAGUCUUGUGAGCAGAUGUACCUGAAGGAUUCUGCUGUUCCAUGAGGGUCUGGCUCUCAGGCUGUAGGC	4.31
CUGCUUAUUAAUCUGUAUUGUACACAUGAUGAAAUGAAGCAGAAGCUGGGAGUCGGCCUUUCCUCUAGUAACCACCACAUGGCUCAGCAUCUGUGCCAAACAUAGGCGCU	0.288
CCCUCCUCUUGGAAUAUUCAGCCUAAGAACCUCAUAGGACUAUGAAUUCACCCGAAAUUCUCAUUUGCCAUCAGGCCGAGCUUUUAAAGAAAAAUUGUUCUCUAACCAGG	0.33
AUGGGGAACACGUGUUCAUUCAUUAAGUCCAUCUUGCGUGCAGCUAUAUCCCUGAUUGGUUAUUUUUCCUUUCCUUCUGAGGUUCUCAUGUCAUUUUCUUCAUCGGAUGU	0.402

Set 2
Target: Prothrombin, mature alpha-thrombin (F2, Homo sapiens, UniProt P00734)
Method: aptamer microarray, sandwich
Molecule type: DNA with 2'F-ANA
Sample: in vitro
Concentration: 200 nM
Setting: whole 15-mer aptamer, many near background
Together with: Cy3 exosite-II aptamer, 400 nM
Reading: higher = stronger binding
Sequence: GGTTGGTGTGGTTGG
Modification	mean fluorescence intensity [a.u.]
2'F-ANA at 6 10 14 15	150
2'F-ANA at 1 2 3 4 5 9 10 13 14	56.8
2'F-ANA at 1 3 6 9 10 12 13	99.9
2'F-ANA at 4 7 12 13 15	444
2'F-ANA at 1 2 4 5 6 7 9 10	52.1

Set 3
Target: Histone acetyltransferase KAT6A, both winged helices, GST fusion (KAT6A, Homo sapiens, UniProt Q92794, residues 1-181)
Method: protein binding microarray
Molecule type: double-stranded DNA, one strand shown
Sample: in vitro
Concentration: not given
Setting: 8-mer, flanks averaged, mean of 2 arrays, mostly near background
Relative to: not given
Reading: higher = stronger binding
Residues (chain): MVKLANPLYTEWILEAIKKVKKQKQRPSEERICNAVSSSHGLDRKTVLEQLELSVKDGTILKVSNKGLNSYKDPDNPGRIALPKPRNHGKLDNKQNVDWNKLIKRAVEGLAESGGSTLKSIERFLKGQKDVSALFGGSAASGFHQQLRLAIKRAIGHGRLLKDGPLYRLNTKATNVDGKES
Sequence	E-score
ATAATTAA	-0.0649
AGCAGCGC	0.209
AGATATAC	-0.15
AAGATGGC	0.0116
GCTTATCC	0.0916
GGCGGGCA	0.277

Other studies, line by line
Molecule	target	assay	test system	setting	scale	quantity	value
PhoQ, residues 284 288 289 292 302 303 ALVSVA	PhoP, residues 12 14 15 18 19 VQGLL (Escherichia coli, UniProt P23836)	Sort-seq, measured: YFP reporter	E. coli	PhoQ-PhoP variant library, together with: 10 µM Mg2+	relative to: high Mg2+ state, higher = stronger signaling	fold induction	19.3

Repeated from above (set 2):
Modification	mean fluorescence intensity [a.u.]
2'F-ANA at 1 2 4 5 6 7 9 10	52.1
2'F-ANA at 1 3 6 9 10 12 13	99.9
